Measured values pooled from the literature.
A part holds a random share of what one study measured.

Study 1
Target: Histone acetyltransferase KAT6A, winged helix 1, GST fusion (KAT6A, Homo sapiens, UniProt Q92794, residues 1-85)
Method: protein binding microarray
Molecule type: double-stranded DNA, one strand shown
Sample: in vitro
Tested at: not given
Setting: 8-mer, flanks averaged, mean of 2 arrays, mostly near background
Baseline: not given
Reading: higher = stronger binding
Construct (chain): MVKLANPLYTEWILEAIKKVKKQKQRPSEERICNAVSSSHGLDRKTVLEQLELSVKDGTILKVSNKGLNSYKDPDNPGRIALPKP
With `AAGTTCCC` the E-score was 0.158.
For `AGTCTACA`, the E-score was -0.137.
For `CTTCGTTA`, the E-score was 0.0384.
For `ATCTTCTG`, the E-score was 0.00532.
For `GACCCACA`, the E-score was -0.116.
`GGATGGAA` gave an E-score of -0.144.
For `CGTTGAAG`, the E-score was -0.102.
With `ACCGGCCC` the E-score was 0.308.
For `ACGCCTAT`, the E-score was 0.0371.

Study 2
Target: PABPC1L2, full length, GST fusion (mouse, UniProt A0ABA7IW68)
Method: RNAcompete
Molecule type: RNA
Sample: in vitro
Tested at: 20 nM
Setting: 7-mer, probes averaged, single round
Baseline: mean of 7-mers
Reading: higher = stronger binding
Residues (chain): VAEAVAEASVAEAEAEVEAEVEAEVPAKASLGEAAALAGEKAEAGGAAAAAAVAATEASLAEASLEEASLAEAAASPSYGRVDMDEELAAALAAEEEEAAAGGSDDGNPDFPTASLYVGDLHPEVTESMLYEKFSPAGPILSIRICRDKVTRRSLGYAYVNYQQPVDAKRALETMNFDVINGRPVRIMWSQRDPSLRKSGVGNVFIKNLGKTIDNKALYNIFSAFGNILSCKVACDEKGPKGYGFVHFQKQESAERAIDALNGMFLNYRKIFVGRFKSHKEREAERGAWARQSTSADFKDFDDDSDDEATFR
For `CAUCUGU`, the 7-mer Z-score was -0.4.
`GCCGUUC` has a 7-mer Z-score of -0.396.
`GAAGUUU` has a 7-mer Z-score of -0.295.
`AGUGUAU` has a 7-mer Z-score of -0.0718.
With `CUGGCGC` the 7-mer Z-score was -0.226.
The 7-mer Z-score of `AGGCUGC` is reported as -0.0844.
The 7-mer Z-score of `GUGAUUA` is reported as -0.0645.
With `GCCGCAC` the 7-mer Z-score was -0.253.
With `GACCAUA` the 7-mer Z-score was -0.148.

Study 3
Target: Sal-like protein 4, full length isoform B (SALL4, Homo sapiens, UniProt Q9UJQ4-2, residues 1-616)
Method: universal PBM
Molecule type: double-stranded DNA, one strand shown
Sample: in vitro
Tested at: not given
Setting: 8-mer, flanks averaged, mean of replicates
Reading: higher = stronger binding
`AACGAGGG` gave an E-score of -0.0891.
`CCATTGCG` gave an E-score of -0.212.
For `ATATCGTG`, the E-score was 0.114.
With `CCCGGCAA` the E-score was -0.216.
With `GCATATGC` the E-score was 0.112.
For `ACGGCGAC`, the E-score was -0.318.
`AGGAGTGA` has an E-score of -0.0589.
For `ATTACAGC`, the E-score was 0.101.

Mixed results
`PhoQ, residues 284 288 289 292 302 303 SSCLAV` has a fold induction of 17.4 (PhoP, residues 12 14 15 18 19 QWHVF (Escherichia coli, UniProt P23836); Sort-seq, refers to: YFP reporter; E. coli; PhoQ-PhoP variant library, together with: 10 µM Mg2+; baseline: high Mg2+ state, higher = stronger signaling).

Repeated from above (study 2):
`GCCGUUC` has a 7-mer Z-score of -0.396.
`AGUGUAU` has a 7-mer Z-score of -0.0718.
The 7-mer Z-score of `AGGCUGC` is reported as -0.0844.
The 7-mer Z-score of `GUGAUUA` is reported as -0.0645.
